Published values from different studies.
Each numbered part is a random draw from the data of one study; scales do not carry over between parts.

Set 1 — technique: protein-binding microarray; form: double-stranded DNA, one strand shown; matrix: in vitro; concentration: 2200 nM top; notes: 60-bp whole probe; together with: salmon DNA 0.4 mg/ml; relative to: random background probes; reading: higher = stronger binding; constant ends, left off below: GCCTAGCAC … GTCTTGATTCGCTTGACGCTGCTG
Target: Interferon regulatory factor 7, full length, phosphomimetic (IRF7, Homo sapiens, UniProt Q92985, residues 1-503, S471D/S472D/S475D/S476D/S477D/S483D/S484D/S487D)
Chain of UniProt Q92985 (whole entry, unmodified, looked up): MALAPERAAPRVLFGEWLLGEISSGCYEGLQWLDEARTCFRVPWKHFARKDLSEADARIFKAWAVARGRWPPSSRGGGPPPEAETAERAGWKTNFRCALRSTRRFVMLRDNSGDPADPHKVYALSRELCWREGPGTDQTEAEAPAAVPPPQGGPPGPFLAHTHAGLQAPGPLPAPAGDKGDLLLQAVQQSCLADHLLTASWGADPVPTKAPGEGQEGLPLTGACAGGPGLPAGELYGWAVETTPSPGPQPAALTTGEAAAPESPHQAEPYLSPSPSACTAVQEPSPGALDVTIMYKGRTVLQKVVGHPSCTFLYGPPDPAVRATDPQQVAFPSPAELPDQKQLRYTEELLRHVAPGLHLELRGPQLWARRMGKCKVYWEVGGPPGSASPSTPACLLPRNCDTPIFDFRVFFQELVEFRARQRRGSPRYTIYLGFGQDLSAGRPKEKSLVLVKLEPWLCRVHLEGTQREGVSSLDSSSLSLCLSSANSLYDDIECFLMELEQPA
Oligonucleotide | fitted relative affinity [z-score]
TCAAGAATCACAACTAGGACTGTGCTA | -0.726
TTTTGTTGTTTTTTGGTTTCGTGCTAG | 3.66
GCCGGTTTCGGGTTTCGGGACGTGCTA | 11.2
TCATTTCTATTTTCTGAACTGTGCTAG | 3.99
TTAGTTTTCGGTATCGGTTAGTGCTAG | 8.04
GACGGTATCCTTCTCCTGTCGTGCTAG | 1.72
TTCGGTATCGGTCTCGGTTAGTGCTAG | 1.57
TCACCTATAGGGCCTGACACTGTGCTA | 0.294
GACGGACTGCGTTTCCTGACGTGCTAG | 0.44
TTAGGTATCGGCTTTCGGTTAGTGCTA | 3.98
TTAGGCTTCCTTATCCTTTAGTGCTAG | 0.787

Set 2 — technique: universal PBM; form: double-stranded DNA, one strand shown; matrix: in vitro; concentration: not given; reading: higher = stronger binding
Target: Sal-like protein 4, full length isoform B (SALL4, Homo sapiens, UniProt Q9UJQ4-2, residues 1-616)
Notes: 8-mer, flanks averaged, mean of replicates
Target sequence (chain): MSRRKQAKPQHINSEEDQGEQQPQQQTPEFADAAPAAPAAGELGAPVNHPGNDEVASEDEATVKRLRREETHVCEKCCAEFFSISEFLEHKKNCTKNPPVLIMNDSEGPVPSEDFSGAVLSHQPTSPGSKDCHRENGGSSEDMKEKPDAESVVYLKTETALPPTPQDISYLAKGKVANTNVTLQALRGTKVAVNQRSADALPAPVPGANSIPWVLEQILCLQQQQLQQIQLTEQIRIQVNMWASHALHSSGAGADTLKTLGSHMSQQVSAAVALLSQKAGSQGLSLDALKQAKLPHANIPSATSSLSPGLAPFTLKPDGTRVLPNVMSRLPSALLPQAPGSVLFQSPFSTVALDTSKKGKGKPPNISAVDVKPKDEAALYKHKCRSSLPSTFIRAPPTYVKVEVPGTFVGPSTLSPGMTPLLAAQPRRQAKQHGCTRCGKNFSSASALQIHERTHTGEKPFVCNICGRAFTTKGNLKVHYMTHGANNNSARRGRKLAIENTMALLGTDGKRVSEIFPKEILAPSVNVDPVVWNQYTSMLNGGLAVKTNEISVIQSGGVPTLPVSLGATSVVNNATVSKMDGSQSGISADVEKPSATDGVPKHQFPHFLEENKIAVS
Oligonucleotide | E-score
ACGCAAGT | -0.0601
AACGACGT | 0.0122
ACCGGGAC | -0.296
AAGTTGGT | 0.0907
CTAAAAAA | 0.303
ATCAAGGC | 0.0465
CAACTGCA | -0.0532
ATTAGAAG | 0.141
CGCGTAAG | -0.0605

Set 3 — technique: protein binding microarray; form: double-stranded DNA, one strand shown; matrix: in vitro; concentration: not given; relative to: not given; reading: higher = stronger binding
Target: Histone acetyltransferase KAT6A, both winged helices, GST fusion (KAT6A, Homo sapiens, UniProt Q92794, residues 1-181)
Notes: 8-mer, flanks averaged, mean of 2 arrays, mostly near background
Residues (chain): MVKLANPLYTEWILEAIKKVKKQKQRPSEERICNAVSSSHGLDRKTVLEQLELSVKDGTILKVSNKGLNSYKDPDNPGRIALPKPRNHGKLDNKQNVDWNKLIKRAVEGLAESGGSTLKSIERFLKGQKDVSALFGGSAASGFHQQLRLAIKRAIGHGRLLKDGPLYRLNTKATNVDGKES
Oligonucleotide | E-score
GCGACTTA | 0.203
AGATCATA | 0.00369
AGGCTGAA | -0.151
CTTAAGGA | -0.186
CCCGACGG | 0.367
CATAGTAC | 0.0104
ACTACTTG | -0.118
AAGTAGAA | -0.168
GCACTGCC | 0.139
ATTCAGCA | -0.148
ATATCACG | -0.0991
CGCTGCCC | 0.143
ATACAGAT | -0.101
ATGTGGGC | -0.0335
CAGACAGG | -0.0245
GGATCAGA | -0.174
CCGCAACC | 0.144

Further values, each from its own experiment
Substance | target | test | test system | conditions | scale | endpoint | result
PhoQ, residues 284 288 289 292 302 303 TLSLKA | PhoP, residues 12 14 15 18 19 NHTVL (Escherichia coli, UniProt P23836) | Sort-seq, measured: YFP reporter | E. coli | PhoQ-PhoP variant library, together with: 10 µM Mg2+ | relative to: high Mg2+ state, higher = stronger signaling | fold induction | 0.691
